Measurements from different studies.
Parts stem from different laboratories: compare values within a part only. Substitutions count along the parent as printed.
UniProt Q9H0K1, sequence (whole entry, looked up): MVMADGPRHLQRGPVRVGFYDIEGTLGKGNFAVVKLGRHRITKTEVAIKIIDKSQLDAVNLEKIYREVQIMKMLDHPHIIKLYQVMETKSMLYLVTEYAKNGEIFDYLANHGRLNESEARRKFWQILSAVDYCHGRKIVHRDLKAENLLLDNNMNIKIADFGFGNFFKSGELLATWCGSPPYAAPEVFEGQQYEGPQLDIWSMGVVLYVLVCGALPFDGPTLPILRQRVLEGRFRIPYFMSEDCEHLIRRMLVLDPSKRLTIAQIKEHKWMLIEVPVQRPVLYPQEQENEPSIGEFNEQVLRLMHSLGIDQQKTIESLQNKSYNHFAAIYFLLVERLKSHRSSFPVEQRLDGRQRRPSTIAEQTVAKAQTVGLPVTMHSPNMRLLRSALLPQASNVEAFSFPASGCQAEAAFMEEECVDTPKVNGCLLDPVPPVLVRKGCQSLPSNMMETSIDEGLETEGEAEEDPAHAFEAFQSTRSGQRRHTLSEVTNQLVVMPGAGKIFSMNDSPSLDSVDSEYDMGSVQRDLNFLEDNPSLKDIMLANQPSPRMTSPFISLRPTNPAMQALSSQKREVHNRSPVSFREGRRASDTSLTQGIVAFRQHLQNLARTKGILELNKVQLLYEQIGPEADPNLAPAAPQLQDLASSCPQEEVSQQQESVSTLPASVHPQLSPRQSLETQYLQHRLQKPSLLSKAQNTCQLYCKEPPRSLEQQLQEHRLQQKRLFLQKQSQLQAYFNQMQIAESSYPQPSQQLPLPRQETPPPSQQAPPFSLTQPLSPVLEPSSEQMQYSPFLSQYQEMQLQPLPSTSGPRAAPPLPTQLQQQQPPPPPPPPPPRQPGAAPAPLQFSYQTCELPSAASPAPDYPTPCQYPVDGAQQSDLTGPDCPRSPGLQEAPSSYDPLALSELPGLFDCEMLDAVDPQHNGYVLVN
UniProt Q09013, sequence (whole entry, looked up): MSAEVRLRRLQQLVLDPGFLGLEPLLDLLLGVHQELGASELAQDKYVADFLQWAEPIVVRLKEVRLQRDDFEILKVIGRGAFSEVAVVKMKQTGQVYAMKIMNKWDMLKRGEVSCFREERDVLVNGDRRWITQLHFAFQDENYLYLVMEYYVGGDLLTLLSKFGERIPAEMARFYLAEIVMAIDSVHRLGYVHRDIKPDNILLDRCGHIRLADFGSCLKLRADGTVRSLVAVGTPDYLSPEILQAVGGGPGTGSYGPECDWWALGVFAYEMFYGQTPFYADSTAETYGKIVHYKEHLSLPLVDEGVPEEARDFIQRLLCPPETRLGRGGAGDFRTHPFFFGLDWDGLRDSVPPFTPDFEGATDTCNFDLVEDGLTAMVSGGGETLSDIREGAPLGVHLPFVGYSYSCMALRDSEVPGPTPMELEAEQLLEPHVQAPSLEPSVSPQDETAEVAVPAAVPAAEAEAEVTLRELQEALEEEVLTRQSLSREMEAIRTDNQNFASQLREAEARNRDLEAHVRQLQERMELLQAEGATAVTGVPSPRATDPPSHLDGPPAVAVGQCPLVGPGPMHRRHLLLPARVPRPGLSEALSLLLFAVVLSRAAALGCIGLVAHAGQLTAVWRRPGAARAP
UniProt Q12851, sequence (whole entry, looked up): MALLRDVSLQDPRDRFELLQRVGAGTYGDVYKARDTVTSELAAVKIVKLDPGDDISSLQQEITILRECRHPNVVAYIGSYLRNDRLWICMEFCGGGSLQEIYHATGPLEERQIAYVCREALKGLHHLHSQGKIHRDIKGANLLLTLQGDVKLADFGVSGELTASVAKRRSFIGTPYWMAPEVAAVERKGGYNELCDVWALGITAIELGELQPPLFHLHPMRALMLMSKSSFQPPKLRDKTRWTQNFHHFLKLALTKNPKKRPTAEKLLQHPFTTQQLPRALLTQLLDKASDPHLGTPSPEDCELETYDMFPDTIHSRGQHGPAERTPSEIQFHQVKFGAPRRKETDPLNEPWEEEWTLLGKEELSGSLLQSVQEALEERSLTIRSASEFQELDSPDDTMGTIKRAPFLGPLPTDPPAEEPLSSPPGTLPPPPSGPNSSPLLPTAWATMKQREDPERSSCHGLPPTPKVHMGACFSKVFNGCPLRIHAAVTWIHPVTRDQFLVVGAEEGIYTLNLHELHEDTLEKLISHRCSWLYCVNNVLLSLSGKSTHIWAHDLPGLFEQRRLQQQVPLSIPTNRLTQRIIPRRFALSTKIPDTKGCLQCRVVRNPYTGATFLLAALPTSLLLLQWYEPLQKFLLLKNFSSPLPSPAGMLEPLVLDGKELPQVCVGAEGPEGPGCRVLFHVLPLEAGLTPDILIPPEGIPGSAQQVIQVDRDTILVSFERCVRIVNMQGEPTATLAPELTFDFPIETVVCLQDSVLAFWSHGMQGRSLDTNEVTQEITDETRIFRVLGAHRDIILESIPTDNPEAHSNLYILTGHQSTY
UniProt O15111, sequence (whole entry, looked up): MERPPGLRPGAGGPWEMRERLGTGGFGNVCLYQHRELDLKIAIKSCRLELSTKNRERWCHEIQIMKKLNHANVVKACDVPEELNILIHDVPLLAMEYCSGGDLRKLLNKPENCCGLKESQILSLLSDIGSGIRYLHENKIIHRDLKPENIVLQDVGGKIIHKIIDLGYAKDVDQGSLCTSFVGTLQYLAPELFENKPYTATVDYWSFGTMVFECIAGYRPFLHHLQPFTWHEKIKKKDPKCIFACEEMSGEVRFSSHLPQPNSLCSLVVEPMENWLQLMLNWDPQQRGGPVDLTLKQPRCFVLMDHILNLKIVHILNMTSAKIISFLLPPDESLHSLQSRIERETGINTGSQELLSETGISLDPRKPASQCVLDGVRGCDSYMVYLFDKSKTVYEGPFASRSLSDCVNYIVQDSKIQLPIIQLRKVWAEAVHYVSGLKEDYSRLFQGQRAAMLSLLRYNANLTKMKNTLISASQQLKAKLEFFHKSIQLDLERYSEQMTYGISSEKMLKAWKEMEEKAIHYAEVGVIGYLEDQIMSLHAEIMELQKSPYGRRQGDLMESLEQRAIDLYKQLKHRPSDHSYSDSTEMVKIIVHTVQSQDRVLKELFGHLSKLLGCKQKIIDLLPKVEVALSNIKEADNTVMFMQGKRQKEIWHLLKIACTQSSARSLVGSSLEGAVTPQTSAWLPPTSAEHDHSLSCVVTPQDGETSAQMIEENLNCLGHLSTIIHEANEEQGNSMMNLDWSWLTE
UniProt Q86UX6, sequence (whole entry, looked up): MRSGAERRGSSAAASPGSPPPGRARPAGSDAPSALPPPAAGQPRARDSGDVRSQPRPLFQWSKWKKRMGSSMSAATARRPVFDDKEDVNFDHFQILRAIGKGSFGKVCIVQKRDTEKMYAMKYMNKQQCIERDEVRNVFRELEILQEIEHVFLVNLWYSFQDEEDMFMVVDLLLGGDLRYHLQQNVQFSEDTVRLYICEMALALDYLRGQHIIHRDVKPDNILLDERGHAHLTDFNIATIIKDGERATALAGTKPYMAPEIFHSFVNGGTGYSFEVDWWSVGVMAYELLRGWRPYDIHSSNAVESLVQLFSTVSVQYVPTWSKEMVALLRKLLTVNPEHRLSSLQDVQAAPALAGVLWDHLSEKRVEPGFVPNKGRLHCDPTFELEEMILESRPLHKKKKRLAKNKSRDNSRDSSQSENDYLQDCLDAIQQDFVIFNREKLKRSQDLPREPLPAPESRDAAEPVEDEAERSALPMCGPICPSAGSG
UniProt P00519, sequence (whole entry, unmodified, looked up): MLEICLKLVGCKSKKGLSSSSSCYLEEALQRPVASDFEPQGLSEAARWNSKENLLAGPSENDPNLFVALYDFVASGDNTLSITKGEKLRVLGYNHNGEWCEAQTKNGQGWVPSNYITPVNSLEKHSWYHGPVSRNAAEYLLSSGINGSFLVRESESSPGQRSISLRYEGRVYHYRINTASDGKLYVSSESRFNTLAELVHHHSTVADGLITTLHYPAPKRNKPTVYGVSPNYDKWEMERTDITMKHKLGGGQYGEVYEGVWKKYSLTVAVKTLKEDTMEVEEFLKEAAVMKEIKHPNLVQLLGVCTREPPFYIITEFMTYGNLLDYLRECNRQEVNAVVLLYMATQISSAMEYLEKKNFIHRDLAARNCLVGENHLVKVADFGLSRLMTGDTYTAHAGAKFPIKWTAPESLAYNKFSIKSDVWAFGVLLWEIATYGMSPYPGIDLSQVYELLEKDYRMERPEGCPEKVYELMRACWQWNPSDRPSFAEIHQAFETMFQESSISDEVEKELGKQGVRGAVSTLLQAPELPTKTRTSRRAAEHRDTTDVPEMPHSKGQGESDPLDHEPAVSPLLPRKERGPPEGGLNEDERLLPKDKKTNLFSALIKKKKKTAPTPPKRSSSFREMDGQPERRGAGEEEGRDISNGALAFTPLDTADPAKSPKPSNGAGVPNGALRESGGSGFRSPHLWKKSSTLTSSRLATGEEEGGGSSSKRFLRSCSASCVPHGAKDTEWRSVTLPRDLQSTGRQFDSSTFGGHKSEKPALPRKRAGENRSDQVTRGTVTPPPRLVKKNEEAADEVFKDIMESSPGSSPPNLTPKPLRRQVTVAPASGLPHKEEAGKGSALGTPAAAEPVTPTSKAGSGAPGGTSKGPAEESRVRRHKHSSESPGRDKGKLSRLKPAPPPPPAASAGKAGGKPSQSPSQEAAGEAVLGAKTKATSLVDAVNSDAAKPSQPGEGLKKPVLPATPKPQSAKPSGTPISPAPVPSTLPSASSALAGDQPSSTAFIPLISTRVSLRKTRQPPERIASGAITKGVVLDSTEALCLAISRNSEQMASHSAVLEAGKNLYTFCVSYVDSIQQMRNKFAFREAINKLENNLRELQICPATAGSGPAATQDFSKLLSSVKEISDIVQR
UniProt Q8N752, sequence (whole entry, looked up): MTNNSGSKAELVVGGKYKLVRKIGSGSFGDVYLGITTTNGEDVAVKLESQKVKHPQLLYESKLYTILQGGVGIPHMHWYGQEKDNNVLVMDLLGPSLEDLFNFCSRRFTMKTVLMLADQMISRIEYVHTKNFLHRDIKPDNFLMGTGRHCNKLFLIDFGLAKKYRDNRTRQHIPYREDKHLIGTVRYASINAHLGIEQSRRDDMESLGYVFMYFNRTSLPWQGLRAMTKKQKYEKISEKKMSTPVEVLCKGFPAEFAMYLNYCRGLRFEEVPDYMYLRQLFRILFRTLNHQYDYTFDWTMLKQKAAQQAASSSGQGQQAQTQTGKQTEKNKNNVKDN

Series 1 — effect on: enzyme activity; action: inhibitor; tested at: 0.5 µM; baseline: control
Target: Dual serine/threonine and tyrosine protein kinase (DSTYK, Homo sapiens, UniProt Q6XUX3)
Target sequence (Q6XUX3 1-929): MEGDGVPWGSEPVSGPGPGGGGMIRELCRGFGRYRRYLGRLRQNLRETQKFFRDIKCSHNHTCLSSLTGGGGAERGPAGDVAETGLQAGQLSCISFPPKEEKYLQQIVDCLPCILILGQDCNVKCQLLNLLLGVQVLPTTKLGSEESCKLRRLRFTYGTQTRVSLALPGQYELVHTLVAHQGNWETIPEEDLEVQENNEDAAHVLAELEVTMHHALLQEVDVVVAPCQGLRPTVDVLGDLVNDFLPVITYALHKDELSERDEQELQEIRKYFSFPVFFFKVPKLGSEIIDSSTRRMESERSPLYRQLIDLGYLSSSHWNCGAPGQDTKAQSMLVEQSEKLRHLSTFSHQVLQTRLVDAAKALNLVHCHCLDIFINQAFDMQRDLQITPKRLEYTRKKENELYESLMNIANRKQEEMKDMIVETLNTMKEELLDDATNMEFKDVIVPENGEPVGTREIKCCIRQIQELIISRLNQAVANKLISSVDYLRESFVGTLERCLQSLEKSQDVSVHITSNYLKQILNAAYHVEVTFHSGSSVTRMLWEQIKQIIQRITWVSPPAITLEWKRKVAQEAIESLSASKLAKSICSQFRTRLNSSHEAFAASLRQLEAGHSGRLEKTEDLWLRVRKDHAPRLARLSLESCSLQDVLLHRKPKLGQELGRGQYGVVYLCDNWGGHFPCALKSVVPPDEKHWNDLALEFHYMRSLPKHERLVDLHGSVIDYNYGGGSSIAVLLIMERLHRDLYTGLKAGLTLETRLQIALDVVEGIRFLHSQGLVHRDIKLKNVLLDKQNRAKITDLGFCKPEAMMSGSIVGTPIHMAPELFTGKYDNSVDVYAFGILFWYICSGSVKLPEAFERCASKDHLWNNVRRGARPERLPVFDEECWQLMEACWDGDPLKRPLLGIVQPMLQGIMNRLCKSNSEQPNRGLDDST
Compound	remaining activity
Cc1ccc(NC(=O)c2ccc(CN3CCN(C)CC3)cc2)cc1Nc1nccc(-c2cccnc2)n1	97.7%
CC(C)c1nn(-c2c(Cl)cccc2Cl)c2nc(Cc3ccc(OCCO)cc3)[nH]c(=O)c12	93.1%
COc1ccc(Cl)cc1NC(=O)Nc1cc(C)nc2ccccc12	98.8%
Cn1cnc2cc3c(Nc4cccc(Br)c4)ncnc3cc21	97.5%
COc1cc2ncnc(Nc3ccc(OCc4ccccc4)cc3)c2cc1OC	95.9%

Series 2 — method: competition with immobilised ligand; tested at: 1 µM
Structure (SMILES): C[C@H](c1ccc(F)cc1)N(Cc1cccc(C(=O)O)c1)C(=O)c1cnc2ccccc2c1
target	test	remaining binding
FLT3 (Homo sapiens, UniProt P36888, D835H)	cell-free assay	84%
STK32C (Homo sapiens, UniProt Q86UX6)	cell-free assay	100%
TXK (Homo sapiens, UniProt P42681)	binding	100%
CDC42BPB (Homo sapiens, UniProt Q9Y5S2)	cell-free assay	94%
SIK2 (Homo sapiens, UniProt Q9H0K1)	cell-free assay	96%
CHUK (Homo sapiens, UniProt O15111)	cell-free assay	93%
EPHA7 (Homo sapiens, UniProt Q15375)	cell-free assay	80%
DMPK (Homo sapiens, UniProt Q09013)	cell-free assay	88%
AKT2 (Homo sapiens, UniProt P31751)	cell-free assay	87%
CSNK1A1L (Homo sapiens, UniProt Q8N752)	cell-free assay	100%
MAP4K2 (Homo sapiens, UniProt Q12851)	cell-free assay	100%
MET (Homo sapiens, UniProt P08581, Y1235D)	cell-free assay	100%
WEE1 (Homo sapiens, UniProt P30291)	cell-free assay	96%
EGFR (Homo sapiens, UniProt P00533, del747-750/T751S)	cell-free assay	100%
Tyrosine-protein kinase ABL1, non-phosphorylated (ABL1, Homo sapiens, UniProt P00519, F317L)	cell-free assay	91%

Series 3 — method: protein-binding microarray; molecule type: double-stranded DNA, one strand shown; matrix: in vitro; tested at: not given; reading: higher = stronger binding
Target: Max dimerization protein 1, bHLH-zipper, MAX partner unstated (MXD1, Homo sapiens, UniProt Q05195, residues 56-136)
Setting: k-mer, scored over probes, only values ≥0.25
Residues (chain): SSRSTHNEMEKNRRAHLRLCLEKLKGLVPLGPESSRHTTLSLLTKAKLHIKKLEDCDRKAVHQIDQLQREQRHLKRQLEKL
Strand	E-score
CACGTGCC	0.489
CACGCACA	0.307
GCTTAACA	0.3
GCCCCGCC	0.324
CCACACCC	0.292
ACGTGCCC	0.397
GAGGGGAA	0.258
CGTGGAGA	0.316

Series 4 — target: CEP164, C-terminal peptide (human); method: DHFR complementation, deep sequencing; matrix: yeast; baseline: wild type; reading: higher = weaker binding
Setting: single substitutions, model-inferred values
Parent: PDZK1, PDZ domain 2 (human); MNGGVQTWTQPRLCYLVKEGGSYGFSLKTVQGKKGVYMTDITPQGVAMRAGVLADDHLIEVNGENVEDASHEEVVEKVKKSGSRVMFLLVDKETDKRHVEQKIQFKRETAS; partner HNRVKVYRF
Substitution	binding free energy change
Y37E	1.63 kcal/mol
V5F	-0.0123 kcal/mol
D95Y	-0.408 kcal/mol
V85F	2.14 kcal/mol
D68I	0.226 kcal/mol
S83T	0.0211 kcal/mol
M1Q	-0.225 kcal/mol
D55T	0.733 kcal/mol

Other studies, line by line
Molecule	target	test	system	conditions	how to read	measurement	result
PhoQ, residues 284 288 289 292 302 303 SLKLQV	PhoP, residues 12 14 15 18 19 YHFSH (Escherichia coli, UniProt P23836)	Sort-seq, measured: YFP reporter	E. coli	PhoQ-PhoP variant library, with: 10 µM Mg2+	baseline: high Mg2+ state, higher = stronger signaling	fold induction	2.92

Some of these lines once more (series 3):
Strand	E-score
GCTTAACA	0.3
GCCCCGCC	0.324
CCACACCC	0.292
